Assay results from different studies.
Each numbered part is a random draw from the data of one study; scales do not carry over between parts. Changes are numbered by the printed parent chain.
UniProt P60604, sequence (whole entry, looked up): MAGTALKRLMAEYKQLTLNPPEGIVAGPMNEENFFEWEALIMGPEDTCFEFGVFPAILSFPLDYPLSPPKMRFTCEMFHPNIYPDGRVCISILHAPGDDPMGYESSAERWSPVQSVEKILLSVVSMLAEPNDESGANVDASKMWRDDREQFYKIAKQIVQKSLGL

Series 1 — method: aptamer microarray, sandwich; molecule type: DNA with 2'F-ANA; sample: in vitro; tested at: 200 nM; added: Cy3 exosite-II aptamer, 400 nM; reading: higher = stronger binding; strand: GGTTGGTGTGGTTGG
Target: Prothrombin, mature alpha-thrombin (F2, Homo sapiens, UniProt P00734)
Notes: whole 15-mer aptamer, many near background
| Modification | mean fluorescence intensity [a.u.] |
| --- | --- |
| 2'F-ANA at 6 7 8 9 11 14 | 182 |
| 2'F-ANA at 1 9 10 11 12 13 14 | 46.5 |
| 2'F-ANA at 3 11 12 14 | 945 |
| 2'F-ANA at 2 3 5 6 14 | 48.4 |
| 2'F-ANA at 1 6 7 12 13 14 | 318 |
| 2'F-ANA at 4 6 7 8 11 13 14 15 | 79.4 |
| 2'F-ANA at 4 5 8 11 13 | 53.1 |
| 2'F-ANA at 1 2 3 6 10 11 12 15 | 105 |
| 2'F-ANA at 1 2 3 4 7 8 9 10 14 | 72.2 |
| 2'F-ANA at 5 8 9 10 12 13 14 | 46 |
| 2'F-ANA at 1 2 4 5 8 10 12 13 14 | 49 |
| 2'F-ANA at 1 3 4 5 6 7 10 11 | 45.8 |
| 2'F-ANA at 1 4 5 6 9 13 14 | 45.5 |
| 2'F-ANA at 1 2 3 8 11 12 13 | 353 |
| 2'F-ANA at 1 4 7 9 13 14 | 50.3 |
| 2'F-ANA at 4 6 15 | 277 |
| 2'F-ANA at 2 4 5 6 9 10 11 13 14 15 | 48.2 |
| 2'F-ANA at 1 7 9 13 15 | 139 |
| 2'F-ANA at 1 5 9 12 14 15 | 47.6 |

Series 2 — method: DHFR PCA, deep sequencing; sample: yeast; added: (+)-ABA 0.0091 µM; baseline: wild-type fitted maximum; reading: higher = stronger binding
Target: ABI1, truncated, D143A, DHFR fusion (Arabidopsis thaliana)
Notes: methotrexate growth selection, single substitutions
Parent: PYL1, truncated, DHFR fusion (Arabidopsis thaliana); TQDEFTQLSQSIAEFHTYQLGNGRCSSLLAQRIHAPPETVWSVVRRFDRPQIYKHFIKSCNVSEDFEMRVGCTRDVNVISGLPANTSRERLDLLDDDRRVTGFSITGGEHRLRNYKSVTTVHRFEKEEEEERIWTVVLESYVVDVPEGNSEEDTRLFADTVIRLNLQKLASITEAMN
| Substitution | relative binding score [%] |
| --- | --- |
| A158E | -2.99 |
| S9W | 17.1 |
| I33D | -0.561 |
| R24A | 5.47 |
| E64H | 25.6 |
| R113F | -6.51 |
| I133T | 37.1 |
| L166R | 0.114 |
| D96N | 2.97 |
| E127W | 11 |
| T6E | 45.9 |
| S140L | 0.751 |
| R49W | -8.42 |
| R46E | -2.36 |
| D48F | 6.52 |

Series 3 — method: universal PBM; molecule type: double-stranded DNA, one strand shown; sample: in vitro; tested at: 600 nM; reading: higher = stronger binding
Target: Sal-like protein 4, full length isoform A (SALL4, Homo sapiens, UniProt Q9UJQ4, residues 1-1053)
UniProt Q9UJQ4, sequence (whole entry, looked up): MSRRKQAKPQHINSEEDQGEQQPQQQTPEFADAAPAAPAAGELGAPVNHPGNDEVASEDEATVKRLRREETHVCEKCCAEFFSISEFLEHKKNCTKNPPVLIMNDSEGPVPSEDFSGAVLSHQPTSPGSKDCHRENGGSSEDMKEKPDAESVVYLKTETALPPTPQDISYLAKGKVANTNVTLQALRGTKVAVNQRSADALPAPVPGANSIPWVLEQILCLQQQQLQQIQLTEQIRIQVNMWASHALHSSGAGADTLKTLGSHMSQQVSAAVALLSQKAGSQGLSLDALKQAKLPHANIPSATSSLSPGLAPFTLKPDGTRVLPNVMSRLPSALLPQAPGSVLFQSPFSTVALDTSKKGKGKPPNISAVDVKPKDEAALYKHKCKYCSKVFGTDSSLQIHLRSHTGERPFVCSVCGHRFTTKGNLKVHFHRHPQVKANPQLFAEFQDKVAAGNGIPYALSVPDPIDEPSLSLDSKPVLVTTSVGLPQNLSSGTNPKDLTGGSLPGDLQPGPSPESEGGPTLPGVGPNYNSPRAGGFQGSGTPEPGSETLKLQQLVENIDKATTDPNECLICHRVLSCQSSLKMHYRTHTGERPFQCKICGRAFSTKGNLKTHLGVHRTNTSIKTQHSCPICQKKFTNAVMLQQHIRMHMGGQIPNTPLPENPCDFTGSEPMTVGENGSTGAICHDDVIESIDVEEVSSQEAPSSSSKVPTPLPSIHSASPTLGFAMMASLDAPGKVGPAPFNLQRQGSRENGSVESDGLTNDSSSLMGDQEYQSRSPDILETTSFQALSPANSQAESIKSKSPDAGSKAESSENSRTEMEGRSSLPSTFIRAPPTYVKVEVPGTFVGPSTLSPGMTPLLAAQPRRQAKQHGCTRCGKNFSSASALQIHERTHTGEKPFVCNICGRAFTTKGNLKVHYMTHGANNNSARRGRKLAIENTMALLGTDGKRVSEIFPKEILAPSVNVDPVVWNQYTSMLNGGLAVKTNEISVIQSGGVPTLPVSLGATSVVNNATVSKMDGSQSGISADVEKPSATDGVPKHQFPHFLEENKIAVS
Notes: 8-mer, flanks averaged, mean of replicates
| Strand | E-score |
| --- | --- |
| GGCTTTAA | 0.0873 |
| AACCGCAC | -0.189 |
| AGTTCGAG | -0.0344 |
| AGCCTTCA | -0.039 |
| CACCGTGA | -0.153 |
| AGAGACGG | -0.17 |
| CTCGCTTC | -0.21 |
| GGTTTTAA | 0.0674 |
| AACCCTTA | 0.0762 |
| CAACCGCG | -0.18 |
| ACTATACG | 0.0733 |

Series 4 — method: RNA Bind-n-Seq; molecule type: RNA; sample: in vitro; tested at: 365 nM; baseline: no-protein control; reading: higher = stronger binding
Target: RNA binding protein fox-1 homolog 2, RRM domain, GST-SBP tag (RBFOX2, Homo sapiens, UniProt O43251-10, residues 100-194)
Notes: natural RNA segment, single round, ends assumed
Shared flanks, not repeated: GGGAGUUCUACAGUCCGACGAUC … UGGAAUUCUCGGGUGCCAA
Residues (chain): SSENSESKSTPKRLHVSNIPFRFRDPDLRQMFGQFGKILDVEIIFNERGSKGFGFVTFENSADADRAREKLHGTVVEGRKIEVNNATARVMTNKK
| Strand | RBNS enrichment (R) |
| --- | --- |
| UGAAGGCCAAGUGAUGGCUUCUGUUCUGGUGGCUUGAACUAACAGGUGGUGUAUCGCCACCUGACUCCUUGUUUAAUGACAGAGGUCUGGGAUGUCACAGUCCAAAAGGA | 0.23 |
| AAAACAUUAUAAAAAAUUUAAGAUAAAAGGUAUUUUAAAAAGAAAACUACCAUAAAGUUAUAUCCACAUGUAAUUUUUUUGAGGAGAUCGAUAAGAGUAGUAGGCACCAC | 0.527 |
| AUAUUAUACCUUAAGGAUUCCUACCAGGUUUUCUUGAAAAGUGGCUUUUACAUGAGGCAAGAAGGAAGUAGUUGUAGAUAGAAUCAUUUUCUAGUUCUUUAAAUGAGACA | 0.478 |
| UUCCUCUCACAUCAGUGGGAUACAGAAUUCAGUUUCUCCCUUGCCAGGUCCUUGGGAUGGUUGACCCCUGCCUCUGCAGUAGCCUUUUGUGAGUCUGCUAAGGUAGCUCU | 0.28 |
| UGGUUUCCCAAAUGACUCAGUUUUUGCUUUCUUUUCUGAAGCCCGAGUGCUAGGUAGGAAUGGCCACAGUUUGAAGAGCUAGAAAUAGCCUUAGGUCGGGCUUCUGUUAU | 1.43 |
| GCAGACUAGUUUUGGAUACAUUCACAUUUUGUACGUUUUCAUAUAAGCUGACAUAGUGUGAUUUGCCAUGUAAUGUUUAUAGCUGCUGCUGUCUGCACAUUUGGGGGUCU | 0.295 |
| UCUUUGGCCAAGGCUGGGCCUGACGGUUAUGAUUUCAGCCCUGGGCCUGCAGGAGAGGCUGAGACCAGCCCACCCAGCCAGUGGUCGAGCACUGCCCCGCCGCCAAAGUC | 0.761 |
| UGCUUUGGACUUGCUUUAGGAGGGAAAUAUAGCUUUGUAGAGAUAAAGGCUGACAUCUGGGGUCUAGCCUAGCACCUGAAGAUACUUGUGAUGUCUAACUCUGCAUAGCC | 1.33 |

Series 5 — target: CCNB1, cyclin fold, Cln2 fusion (human); method: yeast growth competition, sequencing; sample: yeast; notes: strong parent motif; baseline: not given; reading: higher = stronger binding
Parent: BRCA2 docking peptide (human); PSIKRNLLNEFDR; partner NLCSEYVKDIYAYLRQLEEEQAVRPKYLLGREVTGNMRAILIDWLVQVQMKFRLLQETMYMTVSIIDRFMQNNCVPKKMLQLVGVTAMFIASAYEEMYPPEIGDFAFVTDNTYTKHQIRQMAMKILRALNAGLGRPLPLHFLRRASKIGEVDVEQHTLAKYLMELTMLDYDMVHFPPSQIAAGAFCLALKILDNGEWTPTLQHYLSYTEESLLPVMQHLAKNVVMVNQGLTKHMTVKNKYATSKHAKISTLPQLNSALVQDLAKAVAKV
| Substitution | normalised enrichment score |
| --- | --- |
| N9E | 2.31 |
| N6V | 0.498 |
| L7E | -0.0226 |
| R5T | 0.453 |
| R13Q | 2.44 |
| L7N | -0.449 |
| K4R | 3.1 |
| L7R | 0.328 |
| F11M | 0.524 |
| R13C | 2.61 |
| F11I | 1.86 |
| F11W | 0.0277 |
| R5G | -0.116 |
| P1D | 2.79 |
| F11N | -1.02 |
| L8H | 0.583 |

Other studies, line by line
B1: CNOT4 RING domain (UniProt O95628); chain MSRSPDAKEDPVECPLCMEPLEIDDINFFPCTCGYQICRFCWHRIRTDENGLCPACRKPYPED
| Molecule | target | test | system | conditions | scale | endpoint | result |
| --- | --- | --- | --- | --- | --- | --- | --- |
| B1 (CNOT4 RING domain) | UBE2G2 UBC core domain (UniProt P60604) | yeast two-hybrid | yeast | mostly zero background | baseline: not given, higher = stronger interaction | lacZ reporter activity | 0 |

A few entries again (series 2):
| Substitution | relative binding score [%] |
| --- | --- |
| S140L | 0.751 |
| T6E | 45.9 |
| D48F | 6.52 |
| D96N | 2.97 |
| R113F | -6.51 |
| R49W | -8.42 |
| E64H | 25.6 |
